# Measurements collected from several papers.
# Numbered parts are unrelated; each lists some results of a single study. Substitutions count along the parent as printed.

# Set 1
# Target: Transcription factor SOX-2, HMG box (SOX2, Homo sapiens, UniProt P48431, residues 19-118)
# Sequence of UniProt P48431 (19-118, looked up): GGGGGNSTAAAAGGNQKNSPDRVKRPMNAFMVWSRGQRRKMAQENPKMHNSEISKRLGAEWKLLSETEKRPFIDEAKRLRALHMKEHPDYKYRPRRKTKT
# Technique: protein-binding microarray
# Molecule type: double-stranded DNA, one strand shown
# Matrix: in vitro
# Tested at: not given
# Notes: k-mer, scored over probes, only values ≥0.25
# Reading: higher = stronger binding
Oligonucleotide,E-score
ATTCTAA,0.267
ACAAAGC,0.309
ATTCACG,0.317
AGAATAA,0.367
AATTGGT,0.278
TTCACAA,0.286
AATTGTA,0.442
AGAATTG,0.384
ACAAAAA,0.3
ATTCATG,0.444
CAATGTG,0.264
GCATTGA,0.315
TCATTCA,0.362
ATTGTCC,0.455
ACAATGA,0.453
ATTCTTA,0.34
ATACAAA,0.341
ACAATTG,0.463
AATTATC,0.384

# Set 2
# Target: Sal-like protein 4, full length isoform A (SALL4, Homo sapiens, UniProt Q9UJQ4, residues 1-1053)
# Sequence of UniProt Q9UJQ4 (whole entry, looked up): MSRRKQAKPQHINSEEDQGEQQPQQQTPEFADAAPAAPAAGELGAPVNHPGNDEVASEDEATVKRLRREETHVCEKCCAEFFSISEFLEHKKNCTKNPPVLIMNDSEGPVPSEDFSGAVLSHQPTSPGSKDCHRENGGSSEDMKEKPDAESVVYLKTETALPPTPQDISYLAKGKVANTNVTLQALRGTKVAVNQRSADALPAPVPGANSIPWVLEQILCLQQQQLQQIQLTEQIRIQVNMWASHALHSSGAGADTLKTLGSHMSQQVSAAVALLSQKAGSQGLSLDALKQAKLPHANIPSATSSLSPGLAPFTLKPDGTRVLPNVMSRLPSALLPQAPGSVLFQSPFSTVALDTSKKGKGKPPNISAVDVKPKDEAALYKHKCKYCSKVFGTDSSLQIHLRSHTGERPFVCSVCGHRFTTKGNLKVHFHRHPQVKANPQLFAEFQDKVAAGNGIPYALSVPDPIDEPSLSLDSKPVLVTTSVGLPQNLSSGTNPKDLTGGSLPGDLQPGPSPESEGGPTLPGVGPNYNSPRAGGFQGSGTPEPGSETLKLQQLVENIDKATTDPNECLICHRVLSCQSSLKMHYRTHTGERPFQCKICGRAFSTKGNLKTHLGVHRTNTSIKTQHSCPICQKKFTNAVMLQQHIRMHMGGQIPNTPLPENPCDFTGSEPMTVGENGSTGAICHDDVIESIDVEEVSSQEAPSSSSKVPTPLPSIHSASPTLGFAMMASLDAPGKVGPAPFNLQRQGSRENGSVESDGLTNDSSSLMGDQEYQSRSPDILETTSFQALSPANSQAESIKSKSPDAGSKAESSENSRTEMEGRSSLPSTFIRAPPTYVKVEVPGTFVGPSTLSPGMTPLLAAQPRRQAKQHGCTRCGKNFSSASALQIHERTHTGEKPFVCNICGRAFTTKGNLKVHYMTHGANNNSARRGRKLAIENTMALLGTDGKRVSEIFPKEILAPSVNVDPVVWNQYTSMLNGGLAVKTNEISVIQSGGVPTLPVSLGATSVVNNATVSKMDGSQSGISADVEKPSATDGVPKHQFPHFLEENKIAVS
# Technique: universal PBM
# Molecule type: double-stranded DNA, one strand shown
# Matrix: in vitro
# Tested at: 600 nM
# Notes: 8-mer, flanks averaged, mean of replicates
# Reading: higher = stronger binding
Oligonucleotide,E-score
ATCGTTTC,0.1
ATGCGGTC,0.0109
CCGTGTGC,-0.235
GAAGATCA,0.0266
CTTTCGGC,-0.109
AAACGCGG,-0.0066
TCAGGAGA,0.131
ACCCTTTG,-0.168
AGTTTACA,0.148
AACGTGGA,-0.122
GAATTTCC,0.0932

# Set 3
# Target: CCNA1, cyclin fold, Cln2 fusion (human)
# Technique: yeast growth competition, sequencing
# Matrix: yeast
# Notes: weak parent motif
# Relative to: not given
# Reading: higher = stronger binding
# Parent: SLBP docking peptide (human); ARYKRKLLINDFG; partner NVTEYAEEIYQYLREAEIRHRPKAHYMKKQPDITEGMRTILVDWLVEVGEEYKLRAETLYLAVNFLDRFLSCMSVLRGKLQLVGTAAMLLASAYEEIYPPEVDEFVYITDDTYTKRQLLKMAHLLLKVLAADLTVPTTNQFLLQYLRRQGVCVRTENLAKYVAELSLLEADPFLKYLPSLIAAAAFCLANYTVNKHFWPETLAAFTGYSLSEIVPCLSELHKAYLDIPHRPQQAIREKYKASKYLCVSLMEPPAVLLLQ
Change,normalised enrichment score
ARYKRKLLINDFE [G13E],0.566
ARYKRKLLINVFG [D11V],0.208
ARYKRKLRINDFG [L8R],0.0865
AVYKRKLLINDFG [R2V],0.401
ARYKRKLPINDFG [L8P],0.399
CRYKRKLLINDFG [A1C],0.0969
ARYKRKLLINDFW [G13W],-0.221
ARYKRELLINDFG [K6E],0.252
ARYKRKTLINDFG [L7T],0.0897
ARDKRKLLINDFG [Y3D],0.52
ARYLRKLLINDFG [K4L],0.353
ARYCRKLLINDFG [K4C],0.168
ARYKRTLLINDFG [K6T],0.373

# Set 4
# Target: Histone acetyltransferase KAT6A, winged helix 2, GST fusion (KAT6A, Homo sapiens, UniProt Q92794, residues 85-181)
# Technique: protein binding microarray
# Molecule type: double-stranded DNA, one strand shown
# Matrix: in vitro
# Tested at: not given
# Notes: 8-mer, flanks averaged, mean of 2 arrays, mostly near background
# Relative to: not given
# Reading: higher = stronger binding
# Target sequence (chain): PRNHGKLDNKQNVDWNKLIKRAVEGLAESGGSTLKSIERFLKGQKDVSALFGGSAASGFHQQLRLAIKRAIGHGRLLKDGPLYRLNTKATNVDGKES
Oligonucleotide,E-score
CTGGACCA,-0.0544
ACGGTCCT,-0.163
GGCGATAC,0.03
GCATCAGA,0.11
CGATTTGC,0.0421
TTGTGAAA,0.085
AGTTTAAA,0.166
GTACCCCA,-0.117
TTTACAAA,0.115
TCCATAAA,-0.1
AACGTGGT,-0.255
ACCACGGG,0.0561
ATTAATTA,0.122
ATTACCGG,-0.0953
GAAGGGTC,-0.13
CGGCCCAA,0.183
CGGACCAA,0.151
GCACAACC,0.0206
CCAATCGC,-0.0429
AACTGGGA,-0.00064
AATATCGA,0.0609
CAACGGTC,0.0304
ATATTTAG,0.0543
CTTGTTTC,-0.00241
GATATGGA,0.0534

# Set 5
# Target: RNA binding protein fox-1 homolog 2, RRM domain, GST-SBP tag (RBFOX2, Homo sapiens, UniProt O43251-10, residues 100-194)
# Technique: RNA Bind-n-Seq
# Molecule type: RNA
# Matrix: in vitro
# Tested at: 365 nM
# Notes: natural RNA segment, single round, ends assumed
# Relative to: no-protein control
# Reading: higher = stronger binding
# All sequences stand within: GGGAGUUCUACAGUCCGACGAUC … UGGAAUUCUCGGGUGCCAA
# Target sequence (chain): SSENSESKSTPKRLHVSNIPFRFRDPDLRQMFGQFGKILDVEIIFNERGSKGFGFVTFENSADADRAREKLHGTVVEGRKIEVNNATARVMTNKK
Oligonucleotide,RBNS enrichment (R)
UCUAGAUUAUUGUAUAUUCUCACUGGUAUGCUGUUCCCUGGGGGGUGUUCUGUGUCCGACGCUGAGUGACCCUUUGUGAGAAAGACGUUGCCUUUGCAGUACAUGAAACA,0.442
UCCAGGCUUGGCUGAGACGGACGGUAGACUUCCACCAUGUACCGAUCACAUCCCAGCUCUGCAUGGCCCCUGCUAAGGCUCAGGUAUAACCUCACCUUCCCUGGCUCAUC,0.648
AGUAUUAAAAUAAGGCUGUCCCCUACAACCUUCUUAGUCACACAGGAUCCCUGUAGCCAAAACAGUAUAUGAUCCAGCUGCAGAGAGCAGACUGCUCUCAGCUUGCACAG,0.368
GAAUCAGUGGUAGGAGCAGUGAAGUAAAUUCUAUGGAGUACAUUUCUAAAAUACCACAUUUCUGAAAUCAUAAAUAAGUUUAUUCAGGUUCUAACCCUUUGCUGUACACA,0.433
UUACAAAUUAAUUGACUUUGAUAGUUAAAAGAUUAUGAGGUAACCCAUCUGCAAUUUGCCUGUGGGAGAAGCAUCCUUUAGUUCAUCUUAAGGAAGUGCUUUAUCAGCUA,0.21
AGCUCAGGGCAAUGGCAGACCAGAUUGUGGGUCUCCAGCCUUGCAUGGCUGGCAGCCAGAUCCUGGGGCAACCCAUCUGGUCUCUUGAAUAAAGGUCAAAGCUGGAUUCU,0.417
UCGCCUAUUAUACAAACACACAAAACAUUUUUGGAGGCCUCAGUUAUGAGUGACAGAGCUUUCUGUGUAUAAUUUGUCUAAAUAAUUUGUCUAAUAAAAAUGUUUUCUAA,0.667
CUCUGUACACAUUUUUAAACCUGGCAAAAGAUGAAGAGAAUAUUGUAAAUAUAAAAGUUUAACUGUUGUUGUGUUGUCUCCUGUCGUGUUAGAAGGUAGGUGGAGGGUGG,0.94
UCUGGCAGUAUUUUAAACAUGCUAGCAUUUCAGGGGUAUUCUACUUAAAAACAAAACAAAACUGGGAUCAGAUGGCAUCCUAGUUUUGGUACCGGGGCAUUGCCAGUCAC,0.221
AGGGACGGAUAAGGGCAGAUGUCAGCAAUACUAAGGGCUUCCUCCUGGGAGGGAAUGAGGUUCCACUCAUUGUCUCGUGACUUCCAUCCCUGCUGAACGGGGCUGCAAGG,0.817
CUGGCUGCUGCUCCCUCUGGGCUCAUAGCUGGCCCACUUGACGGUCCCUGGUGGCUUCUGGAGGGAAGCUGUACCUCUAGAUACAUUUUUCUUUUCCUUCAGAGACCGUG,0.247
CCAGCCGGCGGACUGUGCUGUUUCCUCCGCCCCCACUCCCGUGUUUUCUGACCUCCUGCCUGAGUUUGGGGUAUUUAUAGACUAUUAAUUUUCUGACUGAGCCAAUAGUG,0.525

# Set 6
# Target: Eukaryotic initiation factor 4A-I (EIF4A1, Homo sapiens, UniProt P60842, residues 1-406, full length assumed)
# Sequence of UniProt P60842 (whole entry, looked up): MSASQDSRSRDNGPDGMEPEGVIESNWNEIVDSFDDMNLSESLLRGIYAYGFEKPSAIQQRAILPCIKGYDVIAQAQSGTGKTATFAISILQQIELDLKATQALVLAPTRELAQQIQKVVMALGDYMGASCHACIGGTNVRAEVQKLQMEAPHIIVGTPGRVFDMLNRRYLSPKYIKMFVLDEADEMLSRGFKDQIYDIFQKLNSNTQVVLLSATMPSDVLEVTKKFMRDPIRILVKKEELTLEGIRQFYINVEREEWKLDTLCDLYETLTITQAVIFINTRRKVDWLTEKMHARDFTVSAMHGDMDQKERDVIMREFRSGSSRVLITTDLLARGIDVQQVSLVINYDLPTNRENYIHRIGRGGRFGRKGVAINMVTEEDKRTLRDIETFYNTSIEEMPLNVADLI
# Technique: RNA Bind-n-Seq
# Molecule type: RNA
# Matrix: in vitro
# Tested at: 15 pmol
# Notes: 4-mer, random 30-nt RNA, single round
# With: 3 µM DMDA-PatA, 2 mM AMP-PNP
# Relative to: input library
# Reading: higher = stronger binding
Oligonucleotide,4-mer enrichment
UCCU,0.652 fold
CAUU,0.632 fold
CCAU,0.406 fold
UAAG,1.39 fold
UGUU,1.44 fold
GGAA,1.03 fold
CCAA,0.376 fold
GUUC,0.87 fold
CAAU,0.641 fold
AGAA,0.916 fold
CCCG,0.682 fold
UUCU,0.812 fold
UAGG,1.59 fold
UAUA,1.4 fold
GUGU,1.71 fold
UGGC,1.09 fold

# Set 7
# Target: PABPC1L2, full length, GST fusion (mouse, UniProt A0ABA7IW68)
# Technique: RNAcompete
# Molecule type: RNA
# Matrix: in vitro
# Tested at: 20 nM
# Notes: 7-mer, probes averaged, single round
# Relative to: mean of 7-mers
# Reading: higher = stronger binding
# Target sequence (chain): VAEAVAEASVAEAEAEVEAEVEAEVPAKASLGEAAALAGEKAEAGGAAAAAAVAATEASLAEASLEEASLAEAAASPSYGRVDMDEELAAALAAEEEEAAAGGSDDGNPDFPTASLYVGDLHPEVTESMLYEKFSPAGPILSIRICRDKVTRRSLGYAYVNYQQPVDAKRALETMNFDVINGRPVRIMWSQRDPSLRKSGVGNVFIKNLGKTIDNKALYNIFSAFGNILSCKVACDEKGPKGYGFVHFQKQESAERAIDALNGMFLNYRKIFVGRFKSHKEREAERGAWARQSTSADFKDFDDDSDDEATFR
Oligonucleotide,7-mer Z-score
GGAUGUG,0.075
CAUACCC,-0.425
UUGAAAC,-0.0391
CUAUUAG,-0.253
AGGCGGA,0.385
GACAACG,-0.012
GGUCCCC,-0.429
UCAGGAC,-0.184
CCGAUAC,-0.233
UAAUUCC,-0.186
CUUAGGU,-0.284
GACUGCC,-0.193
UAUAUGA,-0.0283
ACGACUU,-0.00652
CAUUCUC,-0.438
GUACACC,-0.209

# For quick reference, copied from above (set 3):
Change,normalised enrichment score
ARYKRKLLINDFW [G13W],-0.221
ARYKRKLLINDFE [G13E],0.566
ARYKRKLRINDFG [L8R],0.0865
CRYKRKLLINDFG [A1C],0.0969
ARDKRKLLINDFG [Y3D],0.52
ARYLRKLLINDFG [K4L],0.353
ARYKRKLPINDFG [L8P],0.399
